# Measurements gathered from unrelated publications.
# Parts stem from different laboratories: compare values within a part only. Positions count from the first letter of the parent shown.

# Set 1
# Target: Interferon regulatory factor 7, full length, phosphomimetic (IRF7, Homo sapiens, UniProt Q92985, residues 1-503, S101K/S471D/S472D/S475D/S476D/S477D/S483D/S484D/S487D)
# Sequence of UniProt Q92985 (whole entry, unmodified, looked up): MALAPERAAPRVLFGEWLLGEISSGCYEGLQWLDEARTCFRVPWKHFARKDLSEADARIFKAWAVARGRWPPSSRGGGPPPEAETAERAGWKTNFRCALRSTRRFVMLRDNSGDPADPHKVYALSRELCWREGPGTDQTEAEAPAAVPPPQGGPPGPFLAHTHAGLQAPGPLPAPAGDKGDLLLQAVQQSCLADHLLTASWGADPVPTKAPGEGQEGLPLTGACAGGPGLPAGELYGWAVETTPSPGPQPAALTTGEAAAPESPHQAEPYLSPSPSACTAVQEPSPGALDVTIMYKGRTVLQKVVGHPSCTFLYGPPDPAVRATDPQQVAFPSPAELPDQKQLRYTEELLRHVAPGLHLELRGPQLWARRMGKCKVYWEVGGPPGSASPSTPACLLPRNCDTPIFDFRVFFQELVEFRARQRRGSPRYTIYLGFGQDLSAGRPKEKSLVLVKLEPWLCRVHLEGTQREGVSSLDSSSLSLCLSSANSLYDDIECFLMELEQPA
# Technique: protein-binding microarray
# Molecule type: double-stranded DNA, one strand shown
# Matrix: in vitro
# Tested at: 250 nM
# Setting: 60-bp whole probe
# Added: salmon DNA 0.4 mg/ml
# Reference: random background probes
# Reading: higher = stronger binding
# Constant ends, left off below: GCCTAGCAC … GTCTTGATTCGCTTGACGCTGCTG
Sequence,log fluorescence
TCAACTTTAACTTATTCTACTGTGCTA,0.426 z-score
TCAAGAATGTCCTTTCTCACTGTGCTA,0.0725 z-score
TTAGGACTGGGCTTTCGGTTAGTGCTA,0.07 z-score
TTAGATATCGGGACTGGATTAGTGCTA,-0.0025 z-score
TTAGAACTGCGTCTCGATTAGTGCTAG,0.118 z-score
TTAGATTTCAGGTCCGATTAGTGCTAG,0.734 z-score
GACGATTTCAGTCTCTAGACGTGCTAG,0.347 z-score
GACGGACTGGGTTTCAGGACGTGCTAG,-0.223 z-score
GACGGTTTCGGGGATCGGGACGTGCTA,2 z-score
TCAGGTCTCCCTTGAGGTTTGTGCTAG,-0.302 z-score
GACGAATTGAGTTTCGAGACGTGCTAG,3.71 z-score
CACAGTCTGAGATCCAGAAGGTGCTAG,0.19 z-score
GGCGGTTTCCTTATCCTGACGTGCTAG,2.62 z-score
CAATTCCTGAAATCTCTTTCCGTGCTA,1.09 z-score
TCAATCCTATATCTGAAACTGTGCTAG,0.79 z-score
GACGATATCGGGACTGCAGACGTGCTA,-0.497 z-score
TTAGGTCTCCTTCCCCTTTAGTGCTAG,0.595 z-score

# Set 2
# Target: CCNB1, cyclin fold, Cln2 fusion (human)
# Technique: yeast growth competition, sequencing
# Matrix: yeast
# Setting: weak parent motif
# Reference: not given
# Reading: higher = stronger binding
# Parent: CDC25A docking peptide (human); PPHRRRLLFACSP
Variant,normalised enrichment score
P1R,0.777
P13R,0.624
P13K,0.369
S12P,0.78
R5L,0.685
R6Y,0.114
R6Q,0.717
R6N,0.786
L8K,0.831
H3V,2.16
P13G,0.744
A10H,0.815
R5T,0.199

# Set 3
# Target: Histone acetyltransferase KAT6A, both winged helices, GST fusion (KAT6A, Homo sapiens, UniProt Q92794, residues 1-181)
# Technique: protein binding microarray
# Molecule type: double-stranded DNA, one strand shown
# Matrix: in vitro
# Tested at: not given
# Setting: 8-mer, flanks averaged, mean of 2 arrays, mostly near background
# Reference: not given
# Reading: higher = stronger binding
# Residues (chain): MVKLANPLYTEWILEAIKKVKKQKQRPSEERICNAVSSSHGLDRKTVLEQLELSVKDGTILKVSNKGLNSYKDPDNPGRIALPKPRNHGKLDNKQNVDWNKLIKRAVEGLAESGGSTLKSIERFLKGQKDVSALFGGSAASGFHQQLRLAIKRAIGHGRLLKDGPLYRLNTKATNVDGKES
Sequence,E-score
CATTAAGG,-0.103
GGCCTCGA,-0.0625
AGAATGTG,-0.0598
ATACTCAA,-0.0693
GTCACCGA,-0.0749
TCTGATCA,-0.123
ACCACACA,-0.0926
CGGGAGTC,0.157
CCTCGCAG,-0.00043
GCAAGAAC,-0.00231
AAAGTAGA,-0.157
TGAGATCA,-0.0482

# Other studies, line by line
Molecule,target,test,test system,conditions,how to read,measurement,result
"PhoQ, residues 284 288 289 292 302 303 NSMLDC","PhoP, residues 12 14 15 18 19 SYFRT (Escherichia coli, UniProt P23836)","Sort-seq, measured: YFP reporter",E. coli,"PhoQ-PhoP variant library, added: 10 µM Mg2+","reference: high Mg2+ state, higher = stronger signaling",fold induction,4.95
